Measurements from different studies.
Every numbered part comes from another study and shows a few of its results, in no order. Positions count from the first letter of the parent shown.

Study 1
Target: Interferon regulatory factor 3, full length, phosphomimetic (IRF3, Homo sapiens, UniProt Q14653, residues 1-427, S386D/S396D/S398D/S402D/T404D/S405D)
UniProt Q14653, sequence (whole entry, unmodified, looked up): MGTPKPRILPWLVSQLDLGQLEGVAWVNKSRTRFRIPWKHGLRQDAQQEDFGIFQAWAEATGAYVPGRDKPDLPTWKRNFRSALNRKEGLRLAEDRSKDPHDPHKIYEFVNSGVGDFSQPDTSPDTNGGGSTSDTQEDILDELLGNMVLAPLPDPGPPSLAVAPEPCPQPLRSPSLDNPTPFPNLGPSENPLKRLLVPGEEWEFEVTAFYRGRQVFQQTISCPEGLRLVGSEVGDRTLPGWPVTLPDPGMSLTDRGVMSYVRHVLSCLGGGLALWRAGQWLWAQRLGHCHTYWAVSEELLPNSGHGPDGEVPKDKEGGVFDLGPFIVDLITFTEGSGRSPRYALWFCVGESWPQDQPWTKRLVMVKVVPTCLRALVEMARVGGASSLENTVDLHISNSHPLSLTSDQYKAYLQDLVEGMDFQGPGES
Technique: protein-binding microarray
Molecule type: double-stranded DNA, one strand shown
Medium: in vitro
Concentration: 2540 nM top
Notes: 60-bp whole probe
Together with: salmon DNA 0.4 mg/ml
Relative to: random background probes
Direction: higher = stronger binding
All sequences stand within: GCCTAGCAC … GTCTTGATTCGCTTGACGCTGCTG
For `GACGGACTTCTACTGCTGACGTGCTAG`, “fitted relative affinity” read -0.376 z-score.
`TCAGGTTTCGGTTTCGGTTAGTGCTAG`: “fitted relative affinity” 11.8 z-score.
`TTAGGACTGGGTCTCGCTTAGTGCTAG` — result for “fitted relative affinity”: -0.877 z-score.
`TTAGGTTTCCTACGGCTTTAGTGCTAG`: “fitted relative affinity” 1.94 z-score.
`GACGGACTGGGGACTGCGGACGTGCTA` — result for “fitted relative affinity”: -1.1 z-score.
Under “fitted relative affinity”, `TTAAGAATGTTTTTCATTGTGTGCTAG` is recorded as -0.0508 z-score.
`GACGGTCTCCTTCTCCGGACGTGCTAG`: “fitted relative affinity” 4.17 z-score.
For `TTATGTATCGACACTGGGTTAGTGCTA`, “fitted relative affinity” read 0.537 z-score.
`TTAGGTTTCATTCTCCTTTAGTGCTAG`: “fitted relative affinity” 6.04 z-score.
`TTAAGACTGGGACTGGGTTAGTGCTAG`: “fitted relative affinity” -1.09 z-score.
Under “fitted relative affinity”, `TACGGTATCCTTTTCCTGACGTGCTAG` is recorded as 7.58 z-score.
For `TTATAACTGAGTATCGATTAGTGCTAG`, “fitted relative affinity” read 0.454 z-score.
`GACGGACGGGACACTGGGGACGTGCTA`: “fitted relative affinity” -0.613 z-score.
For `GACGGACCGGGTATCGGGACGTGCTAG`, “fitted relative affinity” read 0.086 z-score.
`ACTGTGTTTTGGATGTCAGAGTGCTAG`: “fitted relative affinity” 0.486 z-score.
`GATTCTTTCGATGCTAAACGAGTGCTA` — result for “fitted relative affinity”: 1.59 z-score.
`GACCATTTCAGACTGGAGACGTGCTAG`: “fitted relative affinity” 1.96 z-score.

Study 2
Target: CCNB1, cyclin fold, Cln2 fusion (human)
Technique: yeast growth competition, sequencing
Medium: yeast
Notes: strong parent motif
Relative to: not given
Direction: higher = stronger binding
Starting sequence: RBL2 docking peptide (human); STTRRRLFVENDS
`STTRRRLFVEGDS [N11G]`: “normalised enrichment score” 1.5.
`STVRRRLFVENDS [T3V]` — result for “normalised enrichment score”: 3.41.
Under “normalised enrichment score”, `STTRRRLFRENDS [V9R]` is recorded as 0.454.
`STTRRRLFHENDS [V9H]` — result for “normalised enrichment score”: 1.15.
`STTRRRLHVENDS [F8H]`: “normalised enrichment score” -0.0491.
`STTRRRLTVENDS [F8T]`: “normalised enrichment score” 1.53.
For `STTRRRLFCENDS [V9C]`, “normalised enrichment score” read 1.65.
`STTARRLFVENDS [R4A]`: “normalised enrichment score” 1.27.
For `SETRRRLFVENDS [T2E]`, “normalised enrichment score” read 1.04.
For `STTRRRLFVENHS [D12H]`, “normalised enrichment score” read 0.494.
For `STTRRQLFVENDS [R6Q]`, “normalised enrichment score” read 1.48.
`STTRRREFVENDS [L7E]` — result for “normalised enrichment score”: 0.658.
`LTTRRRLFVENDS [S1L]` — result for “normalised enrichment score”: 1.82.

Study 3
Target: ABI1, truncated, D143A, DHFR fusion (Arabidopsis thaliana)
Technique: DHFR PCA, deep sequencing
Medium: yeast
Notes: methotrexate growth selection, single substitutions
Together with: (+)-ABA 0.0091 µM
Relative to: wild-type fitted maximum
Direction: higher = stronger binding
Starting sequence: PYL1, truncated, DHFR fusion (Arabidopsis thaliana); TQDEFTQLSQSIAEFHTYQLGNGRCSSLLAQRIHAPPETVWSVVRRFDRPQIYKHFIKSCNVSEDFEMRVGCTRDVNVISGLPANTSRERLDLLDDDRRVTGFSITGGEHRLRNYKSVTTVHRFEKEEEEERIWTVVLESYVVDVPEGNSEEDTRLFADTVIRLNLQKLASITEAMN
For `N22T`, “relative binding score” read 34.5%.
Under “relative binding score”, `I105S` is recorded as -2.11%.
For `D75C`, “relative binding score” read 6.74%.
`E125F`: “relative binding score” 15.5%.
Under “relative binding score”, `F103V` is recorded as -1.68%.
Under “relative binding score”, `E129A` is recorded as 43.1%.
`E128P`: “relative binding score” 17.2%.
For `L138Q`, “relative binding score” read -3.2%.
Under “relative binding score”, `N177T` is recorded as 34.6%.
`E152S`: “relative binding score” 15.6%.
For `L164G`, “relative binding score” read -1.74%.
Under “relative binding score”, `T17L` is recorded as -1.77%.
`S27P`: “relative binding score” 4.6%.
`V136L` — result for “relative binding score”: 16.3%.

Study 4
Target: Ras GTPase-activating protein-binding protein 1, full length (G3BP1, Homo sapiens, UniProt Q13283)
UniProt Q13283, sequence (whole entry, looked up): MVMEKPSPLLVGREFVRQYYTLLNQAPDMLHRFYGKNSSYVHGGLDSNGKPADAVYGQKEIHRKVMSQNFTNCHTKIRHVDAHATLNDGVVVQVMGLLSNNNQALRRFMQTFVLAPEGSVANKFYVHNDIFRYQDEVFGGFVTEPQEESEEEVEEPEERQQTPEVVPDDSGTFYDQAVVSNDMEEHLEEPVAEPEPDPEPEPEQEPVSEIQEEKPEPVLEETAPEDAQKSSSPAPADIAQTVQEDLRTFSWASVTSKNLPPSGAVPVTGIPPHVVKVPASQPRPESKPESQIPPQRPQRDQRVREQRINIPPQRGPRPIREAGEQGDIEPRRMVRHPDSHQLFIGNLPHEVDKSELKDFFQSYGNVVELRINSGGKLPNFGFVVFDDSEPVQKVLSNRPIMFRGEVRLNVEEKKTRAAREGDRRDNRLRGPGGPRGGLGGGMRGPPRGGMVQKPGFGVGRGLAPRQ
Technique: RNA Bind-n-Seq
Molecule type: RNA
Medium: in vitro
Concentration: 200 nM
Notes: whole 134-nt RNA, ends assumed
Together with: 150 mM KCl
Relative to: input library
Direction: higher = stronger binding
With `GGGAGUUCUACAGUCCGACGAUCAGUCCUGUGCUACACAUCGUAUGUACCGAAUCGGAAAAAGGGAAAAAGGGGAAAAAGGAAAGUAUUAUGUUACGCCGUUCGGAUCUGCACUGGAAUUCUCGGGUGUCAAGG` the log2 enrichment was -0.852.
`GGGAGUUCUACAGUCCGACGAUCUCAAGUCCUGUGCUACACAUCGUAUGUACCGAAUCGGAAAGGAAAGGGGAAAGGAAAGUAUUAUGUUACGCCGUUCGGAUCUGCACUUCCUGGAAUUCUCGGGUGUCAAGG` has a log2 enrichment of -0.868.
`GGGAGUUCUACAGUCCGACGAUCCCUGUGCUACACAUCGUAUGUACCGAAUCGGGGAAAAAAGGGGAAAAAAGGGGAAAAAAGGAAAGUAUUAUGUUACGCCGUUCGGAUCUGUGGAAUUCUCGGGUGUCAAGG` gave a log2 enrichment of -0.381.
The log2 enrichment of `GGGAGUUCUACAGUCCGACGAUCACCAUGCAGGUGGGCAUCUUUGGGAAGUGGGGCAAGGGGGGGAUCGGGAGGGGGGUAACACUUUGGGAACAGGUGGUCCCAGGUCGUUUCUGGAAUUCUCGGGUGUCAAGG` is reported as 1.25.
`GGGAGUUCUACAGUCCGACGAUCCAAGUCCUGUGCUACACAUCGUAUGUACCGAAUCGGAGGUUUUUGGAAAAAAAGGAAAGUAUUAUGUUACGCCGUUCGGAUCUGCACUUCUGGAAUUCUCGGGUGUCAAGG` has a log2 enrichment of -1.05.
The log2 enrichment of `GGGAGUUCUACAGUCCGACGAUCCAUCCUUUGGGCCCCUCAAGGCCUUCAACCUGGUCAAGGACAGUGCCACGGGGCUCUCCAAGGGCUACGCCUUCUGUGAGUACGUGGACAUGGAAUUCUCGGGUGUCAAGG` is reported as -1.47.
For `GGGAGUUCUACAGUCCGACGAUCUCCUGUGCUACACAUCGUAUGUACCGAAUCGGGCCCCCCGGGGCCCCCCGGCCCCCCGGGAAAGUAUUAUGUUACGCCGUUCGGAUCUGCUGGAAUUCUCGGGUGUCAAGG`, the log2 enrichment was -0.696.
For `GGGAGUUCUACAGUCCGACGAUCAGUCCUGUGCUACACAUCGUAUGUACCGAAUCGGGGUUUUGGGGUUUUGGGUUUUGGAAAGUAUUAUGUUACGCCGUUCGGAUCUGCACUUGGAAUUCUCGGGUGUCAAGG`, the log2 enrichment was -0.388.
For `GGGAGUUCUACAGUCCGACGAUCUGGGAGGUGGAUUUUGUUUAUUUUUAUAGCUCAUUUCCAGGGGUGGGAAUUUUUUUUUAAUAUGUGUCAUGAAUAAAGUUGUUUUUGAAAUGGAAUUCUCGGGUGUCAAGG`, the log2 enrichment was 0.239.
With `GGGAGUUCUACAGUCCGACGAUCAGAGAAUAAGAAUUCAGCUGACAGGAGGCCUCUAUCCUGUCCCUCCACCCCACCCUCCACCUCAAUCCCCUCCCAUCUUCCCCAGACCUAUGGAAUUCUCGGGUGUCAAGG` the log2 enrichment was 0.754.
With `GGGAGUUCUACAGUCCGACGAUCGUCCUGUGCUACACAUCGUAUGUACCGAAUCGGGUUUUUGGGAAAGGGUUUUUUUGGGAAAGUAUUAUGUUACGCCGUUCGGAUCUGCACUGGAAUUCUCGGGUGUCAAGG` the log2 enrichment was -0.425.
`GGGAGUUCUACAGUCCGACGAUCUGGGAGGUGGAUUUUGAUUAUUUUUUUAGCUCAUUUCCAGGGGUGGGAAUUUUUUUUUAAUAUGUGUCAUGAAUAAAGUUGUUUUUGAAAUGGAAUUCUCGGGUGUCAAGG` gave a log2 enrichment of 0.627.
For `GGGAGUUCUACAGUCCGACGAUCUUAAGGAAGGACACUGAGUCAUGCACAAGUCCUUGCCUUCUUGGUGCCCCUCGGAAAGCACAAGACCCCUCCUCUGCUGGGUGUGAUCAAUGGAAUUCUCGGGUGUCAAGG`, the log2 enrichment was 0.345.
For `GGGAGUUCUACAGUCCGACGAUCAGUCCUGUGCUACACAUCGUAUGUACCGAAUCGGGGAAAAAGGGGAGGGGUUUGGGGAAAGUAUUAUGUUACGCCGUUCGGAUCUGCACUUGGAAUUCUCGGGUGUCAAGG`, the log2 enrichment was 0.0849.

Study 5
Target: Histone acetyltransferase KAT6A, winged helix 2, GST fusion (KAT6A, Homo sapiens, UniProt Q92794, residues 85-181)
Technique: protein binding microarray
Molecule type: double-stranded DNA, one strand shown
Medium: in vitro
Concentration: not given
Notes: 8-mer, flanks averaged, mean of 2 arrays, mostly near background
Relative to: not given
Direction: higher = stronger binding
Construct (chain): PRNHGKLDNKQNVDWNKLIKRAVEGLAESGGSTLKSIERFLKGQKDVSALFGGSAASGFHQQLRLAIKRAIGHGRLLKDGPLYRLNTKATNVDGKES
For `ACAGGGGA`, the E-score was -0.0378.
`AGTCGAGG` has an E-score of 0.0915.
`CCGCGCGC` gave an E-score of 0.22.
`CCCTTCGA` has an E-score of 0.133.
`CAGATCAG` gave an E-score of 0.0236.
`CGGCCGCC` gave an E-score of 0.102.
`CGTGCACC` gave an E-score of -0.0125.
With `GCGGTGCA` the E-score was -0.00959.
With `ATTGTGGA` the E-score was -0.102.
With `GACACCTA` the E-score was -0.162.
For `CAGATGGA`, the E-score was 0.13.
With `CAATTCAA` the E-score was -0.00814.
For `CAGCCGTC`, the E-score was 0.133.
With `CCGCAAAA` the E-score was 0.165.
With `ACTTCCCG` the E-score was 0.0633.
With `AGGTGAAA` the E-score was -0.00543.
For `CGAGTTCA`, the E-score was 0.128.
The E-score of `CTGTGGTA` is reported as -0.00686.
`AATAGACG` gave an E-score of -0.0539.
For `ACCTACAC`, the E-score was -0.147.
With `CGGCAAAC` the E-score was 0.131.
With `CGCCTAAC` the E-score was -0.0815.
`AACTACGG` gave an E-score of -0.112.
`GACTGGTA` has an E-score of 0.0412.
The E-score of `GACCATCA` is reported as -0.165.

Study 6
Target: Sal-like protein 4, full length isoform B (SALL4, Homo sapiens, UniProt Q9UJQ4-2, residues 1-616)
Technique: universal PBM
Molecule type: double-stranded DNA, one strand shown
Medium: in vitro
Concentration: not given
Notes: 8-mer, flanks averaged, mean of replicates
Direction: higher = stronger binding
`CCCGGGAA` has an E-score of -0.274.
`TCCCGTAA` has an E-score of 0.0616.
`CCATAAGC` has an E-score of 0.0683.
`GAAACAAA` has an E-score of 0.249.
With `AGACCCCA` the E-score was -0.113.
The E-score of `AATACAGC` is reported as 0.0345.
For `GGACCGAC`, the E-score was -0.329.
With `GAGGGCGC` the E-score was -0.369.
The E-score of `CCCTTGAG` is reported as -0.204.
With `ATAACCTG` the E-score was 0.247.
The E-score of `GAATTGCC` is reported as -0.0187.
For `GACCTTGC`, the E-score was -0.244.
With `AAAGCGAT` the E-score was 0.0863.
`TATACGGA` gave an E-score of 0.105.
`ACCTCGAA` has an E-score of -0.0273.
`CAGTTATC` gave an E-score of 0.102.
`CACATAGC` gave an E-score of -0.121.
The E-score of `CCGCTGGC` is reported as -0.329.
`TACCAACA` has an E-score of 0.149.
The E-score of `GTATTCCA` is reported as 0.0857.
`GTTGAACA` gave an E-score of 0.103.
`GCATTTTA` gave an E-score of 0.253.
`CTAGAGAA` gave an E-score of 0.00015.
`CTTTGGGC` has an E-score of -0.159.
`GACCTATA` gave an E-score of 0.251.
